Results pooled from the literature.
A part holds a random share of what one study measured. Several values in a cell are separate wells, animals, samples, runs or records.
Sequence of UniProt P42336 (whole entry, unmodified, looked up): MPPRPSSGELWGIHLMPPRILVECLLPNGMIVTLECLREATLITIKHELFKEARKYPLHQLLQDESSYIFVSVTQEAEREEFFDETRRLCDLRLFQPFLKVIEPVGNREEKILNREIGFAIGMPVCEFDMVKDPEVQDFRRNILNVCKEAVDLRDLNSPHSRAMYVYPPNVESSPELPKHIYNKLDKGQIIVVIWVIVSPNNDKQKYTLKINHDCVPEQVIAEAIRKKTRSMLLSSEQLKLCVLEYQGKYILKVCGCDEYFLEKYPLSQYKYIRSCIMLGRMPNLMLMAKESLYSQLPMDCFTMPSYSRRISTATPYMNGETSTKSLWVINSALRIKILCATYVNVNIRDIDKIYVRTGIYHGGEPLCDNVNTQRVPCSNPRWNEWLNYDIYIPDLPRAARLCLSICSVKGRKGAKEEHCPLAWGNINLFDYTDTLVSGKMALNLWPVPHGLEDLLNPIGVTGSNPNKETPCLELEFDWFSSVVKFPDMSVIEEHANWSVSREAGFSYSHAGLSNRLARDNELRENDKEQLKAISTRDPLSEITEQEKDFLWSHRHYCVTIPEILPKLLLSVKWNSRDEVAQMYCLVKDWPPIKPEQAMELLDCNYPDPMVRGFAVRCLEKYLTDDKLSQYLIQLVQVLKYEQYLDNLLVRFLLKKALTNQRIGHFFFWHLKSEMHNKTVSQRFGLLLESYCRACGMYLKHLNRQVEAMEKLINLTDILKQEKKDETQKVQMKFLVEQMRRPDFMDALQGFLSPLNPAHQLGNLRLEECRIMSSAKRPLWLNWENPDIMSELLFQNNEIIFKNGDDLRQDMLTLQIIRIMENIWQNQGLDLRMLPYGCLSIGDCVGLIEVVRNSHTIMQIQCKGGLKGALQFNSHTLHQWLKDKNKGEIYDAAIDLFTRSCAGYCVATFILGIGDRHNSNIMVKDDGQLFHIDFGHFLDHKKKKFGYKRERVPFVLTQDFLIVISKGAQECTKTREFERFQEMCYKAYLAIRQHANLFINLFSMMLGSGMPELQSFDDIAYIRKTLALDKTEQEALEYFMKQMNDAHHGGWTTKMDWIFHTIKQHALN
Sequence of UniProt Q9Y616 (whole entry, looked up): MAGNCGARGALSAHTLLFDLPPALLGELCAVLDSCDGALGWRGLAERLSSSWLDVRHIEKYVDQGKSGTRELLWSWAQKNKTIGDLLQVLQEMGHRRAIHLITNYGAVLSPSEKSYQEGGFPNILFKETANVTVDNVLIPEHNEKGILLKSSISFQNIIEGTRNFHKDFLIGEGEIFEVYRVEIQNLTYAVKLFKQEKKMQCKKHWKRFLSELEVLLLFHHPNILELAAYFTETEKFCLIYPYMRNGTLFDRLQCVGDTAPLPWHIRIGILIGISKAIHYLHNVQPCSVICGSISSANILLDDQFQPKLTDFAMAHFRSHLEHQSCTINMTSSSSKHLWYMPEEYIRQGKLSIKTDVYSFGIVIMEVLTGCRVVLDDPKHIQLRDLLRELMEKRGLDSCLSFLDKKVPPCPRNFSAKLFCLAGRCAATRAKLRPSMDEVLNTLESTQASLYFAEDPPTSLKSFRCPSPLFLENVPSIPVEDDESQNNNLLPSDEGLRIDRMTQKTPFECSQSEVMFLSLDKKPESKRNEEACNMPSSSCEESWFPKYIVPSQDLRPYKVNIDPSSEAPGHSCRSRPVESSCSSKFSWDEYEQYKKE
Sequence of UniProt O00506 (whole entry, looked up): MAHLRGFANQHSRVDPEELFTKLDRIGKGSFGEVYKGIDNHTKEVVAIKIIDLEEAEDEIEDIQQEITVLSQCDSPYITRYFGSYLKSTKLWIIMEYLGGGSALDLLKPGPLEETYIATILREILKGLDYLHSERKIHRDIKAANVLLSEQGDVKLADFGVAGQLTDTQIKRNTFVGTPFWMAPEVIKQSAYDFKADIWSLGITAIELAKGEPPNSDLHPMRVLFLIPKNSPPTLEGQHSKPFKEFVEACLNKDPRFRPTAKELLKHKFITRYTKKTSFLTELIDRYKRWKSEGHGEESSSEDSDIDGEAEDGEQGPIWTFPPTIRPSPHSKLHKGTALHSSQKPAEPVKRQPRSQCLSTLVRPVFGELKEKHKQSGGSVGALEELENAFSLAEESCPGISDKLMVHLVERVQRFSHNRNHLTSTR
Sequence of UniProt Q00535 (whole entry, looked up): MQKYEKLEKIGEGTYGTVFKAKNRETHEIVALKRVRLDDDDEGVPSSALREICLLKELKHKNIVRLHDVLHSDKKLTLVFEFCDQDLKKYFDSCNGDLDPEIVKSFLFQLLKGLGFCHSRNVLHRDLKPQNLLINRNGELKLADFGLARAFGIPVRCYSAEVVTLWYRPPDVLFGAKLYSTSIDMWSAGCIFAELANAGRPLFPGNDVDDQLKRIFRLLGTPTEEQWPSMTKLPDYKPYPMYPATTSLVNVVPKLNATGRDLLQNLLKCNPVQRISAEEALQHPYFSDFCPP

Block 1
Compound: COc1ccc2[nH]c3c4[nH]c5ccc(OC)cc5c4c4c(c3c2c1)C(=O)NC4=O
Technique: competitive binding panel
Concentration: 1 µM
Baseline: vehicle
FGR (Homo sapiens, UniProt P09769) — remaining binding: 68%.
The remaining binding was 88% (WNK4 (Homo sapiens, UniProt Q96J92)).
For RET (Homo sapiens, UniProt P07949): remaining binding read 41%.
It gave 93% for remaining binding (PIK3CA (Homo sapiens, UniProt P42336, I800L)).
MAP4K4 (Homo sapiens, UniProt O95819) — remaining binding: 2.7%.
For EPHA7 (Homo sapiens, UniProt Q15375): remaining binding read 86%.
The remaining binding was 63% (PRKCI (Homo sapiens, UniProt P41743)).
It gave 89% for remaining binding (STK25 (Homo sapiens, UniProt O00506); refers to: YSK1).
MAP3K6 (Homo sapiens, UniProt O95382); refers to: ASK2 — remaining binding: 86%.
For MARK2 (Homo sapiens, UniProt Q7KZI7): remaining binding read 71%.
IRAK3 (Homo sapiens, UniProt Q9Y616) — remaining binding: 66%.
The remaining binding was 76% (IRAK4 (Homo sapiens, UniProt Q9NWZ3)).

Block 2
Structure (SMILES): C[C@H](c1cccc(C#N)c1)n1cc(Cl)cc(C(N)=O)c1=N
Observed: cell-free assay
Technique: competition with immobilised ligand
Concentration: 1 µM
For NEK3 (Homo sapiens, UniProt P51956): remaining binding read 66%.
EGFR (Homo sapiens, UniProt P00533, del747-750/T751S) — remaining binding: 100%.
Tyrosine-protein kinase ABL1, non-phosphorylated (ABL1, Homo sapiens, UniProt P00519) — remaining binding: 100%.
CDK15 (Homo sapiens, UniProt Q96Q40) — remaining binding: 84%.
It gave 74% for remaining binding (LATS1 (Homo sapiens, UniProt O95835)).
For CDK5 (Homo sapiens, UniProt Q00535): remaining binding read 100%.
For CLK2 (Homo sapiens, UniProt P49760): remaining binding read 100%.
For Myosin-IIIb (MYO3B, Homo sapiens, UniProt Q8WXR4): remaining binding read 92%.
CSNK1A1L (Homo sapiens, UniProt Q8N752) — remaining binding: 92%.
PIK3CA (Homo sapiens, UniProt P42336) — remaining binding: 92%.
For RIPK4 (Homo sapiens, UniProt P57078): remaining binding read 71%.
For ERN1 (Homo sapiens, UniProt O75460): remaining binding read 69%.
The remaining binding was 100% (Macrophage colony-stimulating factor 1 receptor, autoinhibited (CSF1R, Homo sapiens, UniProt P07333)).
EPHB3 (Homo sapiens, UniProt P54753) — remaining binding: 78%.
It gave 100% for remaining binding (MAK (Homo sapiens, UniProt P20794)).
The remaining binding was 87% (STK38 (Homo sapiens, UniProt Q15208)).

Block 3
SMILES: COc1cc(C(=O)OCCCN2CCCN(CCCOC(=O)c3cc(OC)c(OC)c(OC)c3)CC2)cc(OC)c1OC
Technique: electrocardiography
The heart rate was 550 beats/min and 590 beats/min and 577 beats/min (mice; intraperitoneal, 10 mg/kg, 60 min).
mice; intraperitoneal, 10 mg/kg, 30 min — heart rate: 600 beats/min and 580 beats/min and 568 beats/min.
For mouse; intravenous, 30 mg/kg, baseline: heart rate read 540 beats/min and 609 beats/min and 612 beats/min and 558 beats/min and 665 beats/min and 579 beats/min.
It gave 559 beats/min and 550 beats/min and 560 beats/min for heart rate (mice; intraperitoneal, 30 mg/kg, 10 min).
For mouse; intravenous, 30 mg/kg, 30 min: heart rate read 377 beats/min and 438 beats/min and 418 beats/min and 392 beats/min and 409 beats/min and 274 beats/min.
The heart rate was 555 beats/min and 550 beats/min (mice; intraperitoneal, 30 mg/kg, 60 min).

Block 4
Target: DNA polymerase theta, ATPase domain (POLQ, Homo sapiens, UniProt O75417)
Sequence of UniProt O75417 (whole entry, unmodified, looked up): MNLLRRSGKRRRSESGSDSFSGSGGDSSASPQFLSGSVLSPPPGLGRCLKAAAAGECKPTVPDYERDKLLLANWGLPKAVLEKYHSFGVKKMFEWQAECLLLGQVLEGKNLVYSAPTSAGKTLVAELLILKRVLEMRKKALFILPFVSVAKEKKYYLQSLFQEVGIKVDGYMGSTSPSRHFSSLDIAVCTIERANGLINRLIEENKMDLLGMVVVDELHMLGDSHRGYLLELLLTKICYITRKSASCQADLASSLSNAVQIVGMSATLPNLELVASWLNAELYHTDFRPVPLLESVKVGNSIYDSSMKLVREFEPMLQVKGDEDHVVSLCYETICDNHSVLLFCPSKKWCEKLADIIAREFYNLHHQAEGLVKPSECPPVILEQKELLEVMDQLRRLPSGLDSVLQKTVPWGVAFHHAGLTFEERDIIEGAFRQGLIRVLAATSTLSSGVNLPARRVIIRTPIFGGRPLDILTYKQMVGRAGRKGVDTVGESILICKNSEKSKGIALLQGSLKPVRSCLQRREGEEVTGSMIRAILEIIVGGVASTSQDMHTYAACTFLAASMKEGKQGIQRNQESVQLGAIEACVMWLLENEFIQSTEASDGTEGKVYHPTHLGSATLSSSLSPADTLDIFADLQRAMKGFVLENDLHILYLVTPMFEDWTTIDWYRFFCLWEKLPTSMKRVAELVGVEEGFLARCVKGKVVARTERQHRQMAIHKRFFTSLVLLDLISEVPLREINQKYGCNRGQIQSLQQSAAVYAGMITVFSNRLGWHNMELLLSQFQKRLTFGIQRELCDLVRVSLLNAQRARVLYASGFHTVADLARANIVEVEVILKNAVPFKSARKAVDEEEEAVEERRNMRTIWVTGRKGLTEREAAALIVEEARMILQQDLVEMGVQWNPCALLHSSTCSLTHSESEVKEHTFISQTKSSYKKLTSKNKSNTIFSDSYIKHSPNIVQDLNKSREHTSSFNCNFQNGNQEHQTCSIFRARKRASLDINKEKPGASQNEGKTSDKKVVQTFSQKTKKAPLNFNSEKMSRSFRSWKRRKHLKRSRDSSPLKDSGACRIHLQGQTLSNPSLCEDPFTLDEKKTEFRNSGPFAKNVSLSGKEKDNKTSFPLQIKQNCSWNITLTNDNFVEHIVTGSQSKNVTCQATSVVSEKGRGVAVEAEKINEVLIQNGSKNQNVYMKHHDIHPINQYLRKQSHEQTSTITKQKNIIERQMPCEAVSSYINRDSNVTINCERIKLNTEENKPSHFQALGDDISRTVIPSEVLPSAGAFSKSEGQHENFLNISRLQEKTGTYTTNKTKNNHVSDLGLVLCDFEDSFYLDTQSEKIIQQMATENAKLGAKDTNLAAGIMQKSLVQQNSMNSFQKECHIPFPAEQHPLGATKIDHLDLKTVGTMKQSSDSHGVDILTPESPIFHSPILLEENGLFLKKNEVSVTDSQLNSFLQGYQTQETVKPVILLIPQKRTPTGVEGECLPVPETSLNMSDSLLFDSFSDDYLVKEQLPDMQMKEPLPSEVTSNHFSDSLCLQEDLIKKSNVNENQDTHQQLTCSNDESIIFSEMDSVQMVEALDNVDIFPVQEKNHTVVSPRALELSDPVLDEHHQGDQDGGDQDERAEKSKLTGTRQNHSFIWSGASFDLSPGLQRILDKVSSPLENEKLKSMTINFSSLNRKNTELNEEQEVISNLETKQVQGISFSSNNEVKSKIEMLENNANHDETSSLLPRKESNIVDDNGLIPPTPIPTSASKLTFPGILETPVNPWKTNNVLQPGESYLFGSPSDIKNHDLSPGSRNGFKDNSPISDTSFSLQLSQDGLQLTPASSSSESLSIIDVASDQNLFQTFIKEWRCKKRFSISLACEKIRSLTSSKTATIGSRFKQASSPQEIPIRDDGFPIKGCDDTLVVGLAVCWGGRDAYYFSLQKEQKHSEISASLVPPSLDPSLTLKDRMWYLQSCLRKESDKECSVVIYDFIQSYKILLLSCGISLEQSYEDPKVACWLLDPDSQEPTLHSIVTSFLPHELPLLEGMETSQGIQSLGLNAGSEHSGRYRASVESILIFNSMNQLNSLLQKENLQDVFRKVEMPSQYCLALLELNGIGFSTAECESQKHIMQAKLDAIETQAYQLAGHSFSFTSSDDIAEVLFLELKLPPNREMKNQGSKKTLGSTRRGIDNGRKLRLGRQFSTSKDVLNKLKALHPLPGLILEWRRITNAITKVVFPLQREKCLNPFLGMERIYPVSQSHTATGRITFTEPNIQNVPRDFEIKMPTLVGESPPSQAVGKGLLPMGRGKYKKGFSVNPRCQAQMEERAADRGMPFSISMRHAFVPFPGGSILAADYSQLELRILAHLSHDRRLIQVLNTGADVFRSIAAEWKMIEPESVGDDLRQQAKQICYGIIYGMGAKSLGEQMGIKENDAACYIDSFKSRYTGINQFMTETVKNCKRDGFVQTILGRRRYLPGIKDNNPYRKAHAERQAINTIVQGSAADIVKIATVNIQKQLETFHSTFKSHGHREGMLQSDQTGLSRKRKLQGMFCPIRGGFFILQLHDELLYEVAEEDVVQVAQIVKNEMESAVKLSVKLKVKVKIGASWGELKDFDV
Observed: enzyme activity
Mode: inhibitor
Concentration: 77 µM
Baseline: untreated
For Cc1cn([C@H]2C[C@H](N=[N+]=[N-])[C@@H](CO)O2)c(=O)[nH]c1=O, the remaining activity was 106% and 103% and 85.4%.
With Nc1nnc(-c2cccc(Cl)c2Cl)c(N)n1 the remaining activity was 104%.
S=c1[nH]c(-c2ccccc2)cn1-c1ccccc1 has a remaining activity of 103%.
CCOc1nc(NC(=O)Cc2cc(OC)ccc2OC)cc(N)c1C#N gave a remaining activity of 98.1%.
COc1ccc(C(=O)c2ccccc2O)c(O)c1 has a remaining activity of 109%.
With Oc1ccc(OCc2ccccc2)cc1 the remaining activity was 98.8% and 96.6%.
CCC1=C[C@@H]2CN(C1)Cc1c([nH]c3ccccc13)[C@@](C(=O)OC)(c1cc3c(cc1OC)N(C)[C@H]1[C@@](O)(C(=O)OC)[C@H](OC(C)=O)[C@]4(CC)C=CCN5CC[C@]31[C@@H]54)C2 gave a remaining activity of 101%.
For CC(=O)Nc1ccc(C(=O)Nc2ccccc2N)cc1, the remaining activity was 76.8%.
COc1cc([C@@H]2c3cc4c(cc3[C@H](O)[C@H]3COC(=O)[C@H]23)OCO4)cc(OC)c1OC has a remaining activity of 102% and 97.3%.
For Nc1nccc(-c2c(-c3ccc(F)cc3)ncn2C2CCNCC2)n1, the remaining activity was 105%.
With COc1cc(=O)n(C)c2c(OCC(O)C(C)(C)O)cccc12 (stereo not drawn) the remaining activity was 104%.

For quick reference, copied from above (block 3):
For mouse; intravenous, 30 mg/kg, 30 min: heart rate read 377 beats/min and 438 beats/min and 418 beats/min and 392 beats/min and 409 beats/min and 274 beats/min.
The heart rate was 555 beats/min and 550 beats/min (mice; intraperitoneal, 30 mg/kg, 60 min).
For mouse; intravenous, 30 mg/kg, baseline: heart rate read 540 beats/min and 609 beats/min and 612 beats/min and 558 beats/min and 665 beats/min and 579 beats/min.
mice; intraperitoneal, 10 mg/kg, 30 min — heart rate: 600 beats/min and 580 beats/min and 568 beats/min.
It gave 559 beats/min and 550 beats/min and 560 beats/min for heart rate (mice; intraperitoneal, 30 mg/kg, 10 min).
The heart rate was 550 beats/min and 590 beats/min and 577 beats/min (mice; intraperitoneal, 10 mg/kg, 60 min).
